Literature values, collected from citations in different studies.
Converted amounts (≈) assume the structure as drawn.

| SMILES | assay | test system | setting | how to read | measurement | result |
| --- | --- | --- | --- | --- | --- | --- |
| CC(C)S(=O)(=O)c1ccc(S(=O)(=O)C(C)C)c(O)c(=O)c1O |  |  |  |  | pKa1 | 2.2 |
| COCCOCCOCCOCCC(=O)NCc1cc(CNC(=O)CCOCCOCCOCCOC)cc(-c2cc3cc4nc(c(OC)c5[nH]c(cc6nc(cc2[nH]3)CC6(C)C)cc5-c2cc(CNC(=O)CCOCCOCCOCCOC)cc(CNC(=O)CCOCCOCCOCCOC)c2)CC4(C)C)c1 |  | DMF | room temperature |  | Qy emission FWHM | 24 nm |
| CCN(CC)C(=O)c1ccc(-c2c3ccc(=[N+](C)C)cc-3sc3cc4c(cc23)C(C)(C)CCN4C)s1 |  | n-octanol/water |  |  | logP | 1.4 |
| CCOc1ccc(NC(=S)N(CCO)Cc2cc3cc(C)cc(C)c3[nH]c2=O)cc1 |  | mouse | oral, with: 1-aminobenzotriazole (pan-CYP inhibitor) |  | oral bioavailability | 99% |
| COc1ccc(SC2=CC(=O)C(=O)c3c(-c4c(C)cccc4C)cn(S(=O)(=O)c4ccccc4)c32)cc1 |  | aqueous buffer with 20% DMSO |  |  | solubility | 2.9 µM (≈ 1.54 µg/mL) |
| CC(C)OC(=O)[C@H](CO)NCc1cc(Cl)c(OCc2cccc(-c3ccccc3)c2Br)cc1OCc1cccnc1 |  | dog liver S9 | 40 min |  | transformation | 100% |
| c1csc(CNc2cc[nH]n2)c1 |  | female rat | oral, 30 mg/kg of parent drug, measured as metabolite |  | Cmax | 1540 ng/mL |
| Nc1ncnc2c1ncn2[C@H]1C[C@H](O)[C@@H](COP(=O)(O)OP(=O)(O)[C@H](Cl)P(=O)(O)O)O1 | measured: bisphosphonate leaving group | aqueous solution | measured experimentally |  | pKa4 | 9.5 |
| Cc1ccccc1-c1cc(N2CC[N+](C)([O-])CC2)ncc1N(C)C(=O)C(C)(C)c1cc(C(F)(F)F)cc(C(F)(F)F)c1 |  | healthy volunteers, plasma | oral, dose not given, netupitant-palonosetron, fasted |  | Tmax | 4.64 h |
| CC(C)Sc1cccc(O)c(=O)c1O |  |  |  |  | pKa1 | 5.9 |
| O=C1C2=C(CCN(Cc3ccccc3)C2)N2CCN=C2N1Cc1ccc(C(F)(F)F)cc1 |  | rats | oral, 50 mg/kg |  | Tmax | 0.5 h |
| Oc1ccc2ccccc2c1/N=N/c1ccccc1 |  |  | phenolic hydroxyl |  | pKa | 11.7 |
| CCCCc1oc2ccccc2c1C(=O)c1cc(I)c(OCCNCC)c(I)c1 |  | human, plasma | dose not given |  | plasma concentration | 1000 to 5000 nM |
| CCN(CC)c1ccc(-c2cc3c(s2)c(C(=O)OC)cc(=O)n3C)cc1 |  | dichloromethane | 10 µM |  | emission maximum | 562 nm |
| CN1CCN(c2cc(-c3ccccc3CO)c(N(C)C(=O)C(C)(C)c3cc(C(F)(F)F)cc(C(F)(F)F)c3)cn2)CC1 |  | healthy volunteers, plasma | oral, 450 mg, single dose, with: palonosetron 0.75 mg |  | AUC(0-inf) | 7930 ng·h/mL |
| C=C[C@@H]1C[C@]1(NC(=O)[C@@H]1C[C@@H](Oc2cc(-c3ccccc3)nc3cc(OC)ccc23)CN1C(=O)[C@@H](NC(=O)OC(C)(C)C)C(C)(C)C)C(=O)NS(=O)(=O)C1CC1 |  | rat, plasma | dose not given, 8 h post-dose |  | tissue concentration | 0.004 µM |
| CC(C)[C@@H]1CC[C@@H](C)C[C@H]1C(=O)NCCc1ccccn1 |  | mouse, bone marrow polychromatic erythrocytes | oral gavage, up to 2000 mg/kg |  | micronucleus formation | negative |
| C=C[C@@H]1C[C@]1(NC(=O)[C@@H]1C[C@@H](Oc2ncc(OC)c3ccccc23)CN1C(=O)[C@@H](NC(=O)OC(C)(C)C)C(C)(C)C)C(=O)NS(=O)(=O)C1CC1 |  | isolated perfused rabbit heart | 10 µM, time not given |  | sinus node recovery time change | 18% |
| CN(C)c1ccc(-c2cc3cc(I)ccc3o2)cn1 |  | intestine | 60 min |  | tissue uptake | 50 ID%/g |
| C=C[C@@H]1C[C@]1(NC(=O)[C@@H]1C[C@@H](Oc2nccc3ccccc23)CN1C(=O)[C@@H](NC(=O)OC(C)(C)C)C(C)(C)C)C(=O)NS(=O)(=O)C1CC1 |  | rat, plasma | dose not given |  | half-life | 2.2 h |

| SMILES | assay | test system | setting | how to read | measurement | result |
| --- | --- | --- | --- | --- | --- | --- |
| CC(=O)N1CCC(NC(=O)NC23CC4CC(C)(CC(C2)c2ccccc24)C3)CC1 |  | mouse liver microsomes | 60 min |  | remaining compound | 0% |
| CC(C)CC(CC(C)C)NC(=O)[C@H](Cc1cnc[nH]1)NC(=O)CNC(=O)[C@@H](NC(=O)[C@H](C)NC(=O)[C@H](Cc1c[nH]c2ccccc12)NC(=O)[C@H](CCC(N)=O)NC(=O)[C@@H](Cc1ccccc1)NC(=O)COCC(=O)Nc1ccc(CNC(=O)CN2CCN(CC(=O)O)CCN(CC(=O)O)CCN(CC(=O)O)CC2)cc1)C(C)C [gallium-68 labelled] |  | nude mice, PC-3 tumour xenograft, tumor | 250 pmol |  | tissue uptake | ~10 %ID/g |
| C=C[C@@H]1C[C@]1(NC(=O)[C@@H]1C[C@@H](Oc2nccc3c(OC)cccc23)CN1C(=O)[C@@H](NC(=O)OC(C)(C)C)C(C)(C)C)C(=O)NS(=O)(=O)C1CC1 |  | rat | dose not given |  | AUC | 2.7 µM·h |
| Cc1ccccc1-c1cc(N2CCNCC2)ncc1N(C)C(=O)C(C)(C)c1cc(C(F)(F)F)cc(C(F)(F)F)c1 |  | systemic circulation |  | baseline: metabolite over netupitant | exposure ratio | 29% |
| CC#N.O=S(=O)([O-])C(F)(F)F.O=S(=O)([O-])C(F)(F)F.Oc1ccc(O)c(CN(CCN(Cc2ccccn2)Cc2ccccn2)Cc2ccccn2)c1.[Mn+2] |  |  | concentration not given |  | reduction potential Mn(III)/Mn(II) | 645 mV vs Ag/AgCl |
| O=S(=O)(O)CCN(CCS(=O)(=O)O)c1ccc(/N=N/c2ccccc2)cc1 |  | water | 10 µM |  | pKa | 2.2 |
| Cc1nc2n(c(=O)c1CCN1CCC(c3noc4cc(F)ccc34)CC1)CCCC2O (stereo not shown) |  | mouse |  |  | Kp,brain | 0.06 |
| Cc1[nH]nc2c1N=C(c1ccccc1Cl)c1cnc(N3CCOCC3)cc1N2 |  | patients | dose not given, 7 dose cohorts |  | tolerability | not toxic |
| CSCCN(CCSC)CCc1ccccn1 |  |  | mixed-mode protonation constant |  | log KH2 | 3.26 |
| Cc1ccccc1-c1cc(N2CC[N+](C)([O-])CC2)ncc1NC(=O)C(C)(C)c1cc(C(F)(F)F)cc(C(F)(F)F)c1 |  | urine | oral, concentration not given, dosed as palonosetron | baseline: dose | urinary excretion | 17.2% |
| CNCCCOc1cc(F)c(-c2c(Cl)nc3ncnn3c2N[C@@H](C)C(F)(F)F)c(F)c1 |  | nude mouse, female |  |  | half-life | 13 h |
| C=C[C@@H]1C[C@]1(NC(=O)[C@@H]1C[C@@H](Oc2ncc(OC)c3c(Cl)cccc23)CN1C(=O)[C@@H](NC(=O)OC(C)(C)C)C(C)(C)C)C(=O)NS(=O)(=O)C1CC1 |  | isolated perfused rabbit heart | 10 µM |  | heart rate change | -44% |
| CNc1nc2ccccc2n2c(CCc3ccccc3)cnc12 |  | rat | intraperitoneal, dose not given |  | bioavailability | 22.7% |
| O=C([O-])CN1CCN(CC(=O)[O-])CCN(Cc2cccc(C(=O)[O-])n2)CCN(CC(=O)[O-])CC1.[Eu+3] |  | 1 M HCl | 298 K |  | dissociation half-life | 5.7 min |
| COc1cc(/C=C/C(=O)CC(=O)CCc2ccc(O)c(OC)c2)ccc1O |  |  |  |  | logP | 3.77 |
| OC[C@@H]1[C@@H](O)[C@H](O)[C@@H](O)c2nccn21 |  |  |  |  | pKa | 6.1 |
| Oc1cccc(-c2cccc(O)n2)n1.[Cl-].[Cl-].[Ru+2].c1cnc2c(c1)c1c(c3cccnc32)OCCO1.c1cnc2c(c1)c1c(c3cccnc32)OCCO1 |  |  |  |  | pKa2 | 6.8 |
| CN1CCC(C)(C)c2cc3c(-c4ccc(C(=O)N5CCCCC5)s4)c4ccc(=[N+](C)C)cc-4sc3cc21 |  | methanol |  |  | molar extinction coefficient | 83100 M⁻¹ cm⁻¹ |
| COc1cc(F)c(C(C)C)cc1C1=C(CN2C(=O)O[C@H](c3cc(C(F)(F)F)cc(C(F)(F)F)c3)[C@@H]2C)CC(C)(C)CC1 |  | hamster | intravenous, single dose |  | Vd | 0.99 to 1.11 L/kg |
| O=C([O-])CN(CCN(CC(=O)[O-])CC(=O)NCCc1c[nH]c2ccc(O)cc12)CCN(CC(=O)[O-])CC(=O)NCCc1c[nH]c2ccc(O)cc12.[Gd+3] |  | PBS | 40 °C, 0.47 T |  | relaxivity r1 | 4.3 mM⁻¹ s⁻¹ |
